Experimental data gathered from unrelated publications.
Parts stem from different laboratories: compare values within a part only. Changes are numbered by the printed parent chain.

Study 1
Target: RNA binding protein fox-1 homolog 2, RRM domain, GST-SBP tag (RBFOX2, Homo sapiens, UniProt O43251-10, residues 100-194)
Technique: RNA Bind-n-Seq
Form: RNA
Sample: in vitro
Tested at: 365 nM
Setting: natural RNA segment, single round, ends assumed
Relative to: no-protein control
Direction: higher = stronger binding
Shared flanks, not repeated: GGGAGUUCUACAGUCCGACGAUC … UGGAAUUCUCGGGUGCCAA
Target sequence (chain): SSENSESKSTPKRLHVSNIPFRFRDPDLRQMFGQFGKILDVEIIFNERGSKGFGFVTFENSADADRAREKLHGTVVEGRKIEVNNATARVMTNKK
Oligonucleotide | RBNS enrichment (R)
CUUCUAUAUGAGUGUUUUAACCCUCAGCAUUCUGUGGUCAGGAAGAUAAAAGCAUCUGCAGGUCCCUCCAAGACGAGAAGAGCAACAUCAUGCUCUUUGCUUCUGUCUAU | 0.329
GAGGUGCACUCAAGUGUGGGACUGAGCUUGGCUUCUGGCUCAGUUUCCAUUUUUUGGUCUGAAACUUCAUGUAUUUGAAUAUAGUUAAAUUUUAUUAUUUUUUUCUUACA | 0.429
AAAAUUUGUUUUGUAUUAGUUAUUUUACCUUUAGGGACCCUACAACUGAAGAGAGUGGAGAGAAUAAAGAAGUGAACUUUCAUUCAUGUCUGCUACUUUGACCUCAUAAA | 0.615
GUGAGAUACUGUAAAUUUGAGCUUUGUCAAACAUAUGGUAAGUUAAAGGGGAAGACCAGUGCUUCUUAAGACAGUGAGGGGUCUUCCUCCUGUGGCCAGGCGCUCCUGCA | 3.31
GUUGUUGCAUGUUUGAAAUGAGGUCUGUUUAAAGUGGCAAUCUCAGAUGCAGUUUGGAGAGUCAGAUCUUUCUCCUUGAAUAUCUUUCGAUAAACAACAAGGUGGUGUGA | 9.16
UUGGGAAGAAAGGAAGAAAACAGGUCCCUCCAGGGGUGCUGCUGCCUAAGCCACCCACAUAAGUACGCUGGUGCCGUGUCACCCAUGUUGAGCCGCUCCUGAUGGCUGAC | 0.3
ACAUACUCCCGCCCCAAGGGAGGCUUCUCUCCAUCAGGGUGGUACACGGGCAACAAAGUAGGGAUUUGAUUCCCCUUUGAGGAGGUAGUGCUGUUUGCUUUUAGGUCUGG | 0.456
GAGAUCUCAAUGCUGUCUGGGGACCCUAAGAGUUUUCUCACCUGUUCAGUCUCAUCUAACCUUCCAAUGUCUGAUGUUCCUGCCAAAUUCCUGCCUGAUUCUGGGUCCGU | 0.474

Study 2
Target: CCNB3, cyclin fold, Cln2 fusion (human)
Technique: yeast growth competition, sequencing
Sample: yeast
Setting: strong parent motif
Relative to: not given
Direction: higher = stronger binding
Starting sequence: viral docking peptide; TSVRRALFTGGSD; partner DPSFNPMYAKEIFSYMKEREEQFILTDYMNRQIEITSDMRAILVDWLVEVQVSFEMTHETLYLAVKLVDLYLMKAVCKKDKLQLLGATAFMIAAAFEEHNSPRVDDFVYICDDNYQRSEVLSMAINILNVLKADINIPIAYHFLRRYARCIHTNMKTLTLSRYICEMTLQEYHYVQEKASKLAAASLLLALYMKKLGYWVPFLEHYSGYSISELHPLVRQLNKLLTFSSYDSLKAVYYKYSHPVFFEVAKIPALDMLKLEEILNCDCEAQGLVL
Change | normalised enrichment score
R5D | -0.121
G10T | 2.17
G11M | 1.77
F8G | 0.201
R4H | -0.272
F8E | -0.436
V3M | 0.337
F8H | 0.0655
T9K | 1.68
G11V | 2.01
F8R | 0.0277
V3L | 0.423
F8K | -0.0296
F8A | 0.0436
F8L | 0.445
V3I | 1.28
R5G | 0.242
S12F | 1.52

Study 3
Target: BATF3, bZIP domain (human)
Technique: DHFR protein complementation
Sample: yeast
Setting: single substitutions, most at no-binding floor
Relative to: wild-type JUN-FOS pair
Direction: higher = stronger binding
Starting sequence: JUN, bZIP domain (human); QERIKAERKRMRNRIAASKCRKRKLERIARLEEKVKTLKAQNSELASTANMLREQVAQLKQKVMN; partner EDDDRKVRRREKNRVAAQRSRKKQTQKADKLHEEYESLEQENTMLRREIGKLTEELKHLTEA
Change | binding fitness [natural log]
Q55L | -0.0135
E54Q | -0.0732
S47W | 0.19
S43D | 0.211
A57H | 0.127
E32F | 0.0528
L38E | 0.0433
K34W | 0.316

Study 4
Target: Myc proto-oncogene protein, bHLH-zipper, MAX partner unstated (MYC, Homo sapiens, UniProt P01106, residues 368-449)
Sequence of UniProt P01106 (368-449, looked up): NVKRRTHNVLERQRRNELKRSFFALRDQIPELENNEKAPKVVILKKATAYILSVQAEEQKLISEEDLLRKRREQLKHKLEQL
Technique: protein-binding microarray
Form: double-stranded DNA, one strand shown
Sample: in vitro
Tested at: not given
Setting: k-mer, scored over probes, only values ≥0.25
Direction: higher = stronger binding
Oligonucleotide | E-score
ACATCGTG | 0.408
ATGTGCGG | 0.369
ACGCCGCA | 0.316
CACCTCGC | 0.27
CCATGCCA | 0.356
AGGCGTGC | 0.323
ACGAGGTA | 0.349
GCGCACGA | 0.37

A few entries again (study 1):
Oligonucleotide | RBNS enrichment (R)
CUUCUAUAUGAGUGUUUUAACCCUCAGCAUUCUGUGGUCAGGAAGAUAAAAGCAUCUGCAGGUCCCUCCAAGACGAGAAGAGCAACAUCAUGCUCUUUGCUUCUGUCUAU | 0.329
GAGGUGCACUCAAGUGUGGGACUGAGCUUGGCUUCUGGCUCAGUUUCCAUUUUUUGGUCUGAAACUUCAUGUAUUUGAAUAUAGUUAAAUUUUAUUAUUUUUUUCUUACA | 0.429
AAAAUUUGUUUUGUAUUAGUUAUUUUACCUUUAGGGACCCUACAACUGAAGAGAGUGGAGAGAAUAAAGAAGUGAACUUUCAUUCAUGUCUGCUACUUUGACCUCAUAAA | 0.615
GUGAGAUACUGUAAAUUUGAGCUUUGUCAAACAUAUGGUAAGUUAAAGGGGAAGACCAGUGCUUCUUAAGACAGUGAGGGGUCUUCCUCCUGUGGCCAGGCGCUCCUGCA | 3.31
GUUGUUGCAUGUUUGAAAUGAGGUCUGUUUAAAGUGGCAAUCUCAGAUGCAGUUUGGAGAGUCAGAUCUUUCUCCUUGAAUAUCUUUCGAUAAACAACAAGGUGGUGUGA | 9.16
